{"data": "Results pooled from the literature", "note": "Protocols differ between the studies behind these lines. ± marks the error that the study gave."}
{"SMILES": "C#CCN1CCN(Cc2c(O)ccc3oc(-c4ccc(OC)cc4)c(C(=O)OCC)c23)CC1", "cell line": "J774.A1", "test": "cytotoxicity, resazurin", "setting": "up to 200 µM, 18 h", "IC50": "not toxic"}
{"SMILES": "OCc1ccc(-c2nn(Cc3ccncc3)c3cccnc23)o1", "cell line": "SNU-1079", "test": "cell viability, CellTiter-Glo", "IC50": "13.1 µM"}
{"SMILES": "C[C@H]1Oc2cc(cnc2N)-c2c(nn(C)c2C#N)CN(C)C(=O)c2ccc(F)cc21", "cell line": "Ba/F3 EML4-ALK v1, no mutation", "test": "cell viability", "IC50": "< 0.00364 µM"}
{"SMILES": "C[C@@H]1CC[C@@H]([C@](O)(CNCc2ccccc2)COCc2ccc(F)cc2)[C@H](OCc2ccc(F)cc2)C1", "cell line": "A2780", "test": "cell growth, inhibitor, MTT", "setting": "72 h", "IC50": "2.23 µM"}
{"SMILES": "Cc1c2ccnc(C(=O)N[C@H](C)CN(C)C)c2cc2c3cc(O)ccc3n(C)c12", "cell line": "HEK293T (G4C2)66-No-ATG-GFP reporter", "test": "RAN translation of r(G4C2)exp, fluorescence reporter", "IC50": "0.1 µM"}
{"SMILES": "O=C(Nc1c(Cl)cncc1Cl)c1ccc(OC(F)F)c(OCC2CC2)c1", "cell line": "human PBMC", "test": "cytokine release, measured: IFN-γ", "setting": "24 h, added: anti-CD28, and anti-CD3ε", "IC50": "0.0025 µM"}
{"SMILES": "NCc1ccc(-c2nn(Cc3ccccc3)c3ccccc23)o1", "cell line": "SNU-1079", "test": "cell viability, CellTiter-Glo", "IC50": "2.62 µM"}
{"SMILES": "COc1nc(OCc2cccc(-c3ccccc3)c2C)ccc1CNCCNC(C)=O", "cell line": "human PBMC", "test": "cell viability, MTT", "IC50": "3.4 µM"}
{"SMILES": "Nc1ncc(-c2cnn(C3CCNCC3)c2)cc1-c1nnc(CC2CC2)o1", "cell line": "OCI-AML-3", "test": "cell viability", "setting": "72 h", "IC50": "0.48 µM"}
{"SMILES": "CCn1ncc2c1-c1cnc(N)c(c1)O[C@H](C)c1cc(F)ccc1-c1nn(C)nc1C2", "cell line": "Ba/F3 (TPM3-TRKA, ETV6-TRKB, ETV6-TRKC)", "test": "cell viability", "setting": "geometric mean", "IC50": "0.27 µM"}
{"SMILES": "COc1cc(OC)cc(C(=O)c2cc3c(-c4ccccc4)c(O)ccc3o2)c1", "cell line": "FM3A", "test": "cell proliferation", "setting": "48 h", "IC50": "30 ± 2 µM"}
{"SMILES": "O=C(O)COCC(=O)O", "cell line": "hepatocytes, iPSC-derived, line L3", "test": "cell viability, RealTime-Glo MT", "setting": "24 h, differentiation day 23", "IC50": "11800 µM"}
{"SMILES": "C=CC(=O)Nc1cc(Nc2nccc(Nc3cc(Cl)c(F)cc3C(C)(C)O)n2)c(OC)cc1N1CC[C@@H](N(C)C)C1", "cell line": "NCI-H2073 KI SVD", "test": "cell proliferation, CellTiter-Glo", "setting": "72 h", "IC50": "0.021 µM"}
{"SMILES": "C[C@H](Nc1ccc2c(c1)OCCn1cc(N3C(=O)OC[C@H]3C(F)F)nc1-2)C(N)=O", "cell line": "BT-20", "test": "growth rate inhibition, CellTiter-Glo", "setting": "120 h", "IC50": "0.697 µM"}
{"SMILES": "C[C@H]1CN(C2COC2)CCN1c1ccc(Nc2cc(-c3ccnc(N4CCn5c(cc6c5CC(C)(C)C6)C4=O)c3CO)cn(C)c2=O)nc1", "cell line": "TMD8", "test": "calcium flux, FLIPR", "setting": "2 h preincubation, added: anti-IgM", "IC50": "0.0136 µM"}
{"SMILES": "CN1CCC(NC2CCc3[nH]c4c(C(N)=O)ccc(-c5ccccc5Cl)c4c3C2)CC1 (stereo not shown)", "cell line": "K562/DOX, doxorubicin-resistant", "test": "cell growth, CellTiter-Glo", "setting": "96 h", "IC50": "0.0254 µM"}
{"SMILES": "NCc1ccc(-c2nn(Cc3ccccn3)c3cccnc23)o1", "cell line": "SNU-1079", "test": "cell viability, CellTiter-Glo", "IC50": "4.66 µM"}
{"SMILES": "CC(C)c1ccccc1[C@@H]1CCCN1C1CC2(CCN(c3ccc(C(=O)NS(=O)(=O)c4ccc(NC[C@H]5CC[C@](C)(O)CC5)c([N+](=O)[O-])c4)c(Oc4cnc5[nH]ccc5c4)c3)CC2)C1", "cell line": "KMS-12-PE", "test": "cell viability, CellTiter-Glo", "IC50": "0.0016 ± 0.00051 µM"}
{"SMILES": "COc1ncccc1Cn1nc(-c2ccc(CO)o2)c2ccccc21", "cell line": "SNU-1079", "test": "cell viability, CellTiter-Glo", "IC50": "0.21 µM"}
{"SMILES": "CCCCN1C[C@H](O)[C@@H](O)[C@@H](O)[C@H]1CO", "cell line": "sample G patient fibroblasts", "test": "Gb3 level lowering, LC-MS/MS, measured: Gb3 d18:1/22:0", "setting": "216 h", "IC50": "10.9 µM"}
{"SMILES": "Cc1nc(NC(=O)N2CCC[C@H]2C(N)=O)sc1-c1ccnc(C(C)(C)C(F)(F)F)c1", "cell line": "KYSE-510", "test": "growth rate inhibition, CellTiter-Glo", "setting": "120 h", "IC50": "7.81 µM"}
{"SMILES": "COc1ccc(COC[C@@](O)(CNCc2ccccc2)[C@@H]2CC[C@@H](C)C[C@H]2OCc2ccc(OC)cc2)cc1", "cell line": "A2780", "test": "cell growth, inhibitor, MTT", "setting": "72 h", "IC50": "1.64 µM"}
{"SMILES": "Cc1c(C)c2c(c(C)c1O)CCC(C)(COc1ccc(CC3SC(=O)NC3=O)cc1)O2 (stereo not shown)", "cell line": "hepatocytes, iPSC-derived, line L3", "test": "cell viability, RealTime-Glo MT", "setting": "24 h, differentiation day 23", "IC50": "70 µM"}
{"SMILES": "N#CC[C@H](C1CCCC1)n1cc(-c2ncnc3[nH]ccc23)cn1", "cell line": "human PBMC", "test": "cytokine release, measured: IFN-γ", "setting": "24 h, added: anti-CD28, and anti-CD3ε", "IC50": "0.05 µM"}
{"SMILES": "C[C@@H]1CC[C@@H]([C@@](O)(CNCc2cccc3ccccc23)COCc2ccccc2)[C@H](OCc2ccccc2)C1", "cell line": "A2780", "test": "cell growth, inhibitor, MTT", "setting": "72 h", "IC50": "4.06 µM"}
{"SMILES": "C=CC(=O)Nc1cccc(Oc2nc(Nc3ccc(N4CCN(C)CC4)cc3)nc3ccoc23)c1", "cell line": "TMD8 RAC2 knock-out", "test": "calcium flux, FLIPR", "IC50": "< 0.1 µM"}
{"SMILES": "COc1cc2nc(N3CCN(C(=O)c4ccco4)CC3)nc(N)c2cc1OC", "cell line": "TW01", "test": "MTT", "setting": "48 h", "IC50": "22.7 ± 13.8 µM"}
{"SMILES": "CCOc1cc([C@@H](CS(C)(=O)=O)N2C(=O)c3cccc(NC(C)=O)c3C2=O)ccc1OC", "cell line": "human PBMC", "test": "cytokine release, measured: TNF-α", "setting": "24 h, added: anti-CD28, and anti-CD3ε", "IC50": "0.059 µM"}
{"SMILES": "CC#CC(=O)N1CCC[C@H]1c1nc(-c2ccc(C(=O)Nc3ccccn3)cc2)c2c(N)nccn12", "cell line": "TMD8", "test": "calcium flux, FLIPR", "setting": "2 h preincubation, added: anti-IgM", "IC50": "0.0117 µM"}
{"SMILES": "COC(=O)c1ccc(C(=O)COc2ccc(N3C(=O)[C@@H]4[C@@H]5C=C[C@@H]([C@H]6C[C@@H]56)[C@@H]4C3=O)cc2)cc1", "cell line": "Mut6 cells", "test": "cell viability, CellTiter-Glo", "setting": "96 h", "IC50": "1.93 µM"}
{"SMILES": "COc1cc(N2CCC(N3CCN(C)CC3)CC2)ccc1Nc1ncc(Cl)c(Nc2ccccc2P(C)(C)=O)n1", "cell line": "Ba/F3 EML4-ALK v1, no mutation", "test": "cell viability", "IC50": "0.0364 µM"}
{"SMILES": "COc1ccc(C(=O)CCc2ccc(N3C(=O)[C@@H]4[C@@H]5C=C[C@@H]([C@H]6C[C@@H]56)[C@@H]4C3=O)cc2)cc1", "cell line": "Mut6 cells", "test": "cell viability, CellTiter-Glo", "setting": "96 h", "IC50": "0.0184 µM"}
{"SMILES": "CN1CC(Oc2cnc(C#N)cc2-c2ccn3nc(NC(=O)C4CC4)cc3c2)C1", "cell line": "human monocyte-derived macrophages", "test": "cytokine release, measured: TNF", "setting": "added: LPS", "IC50": "3.82 µM"}
{"SMILES": "COc1ccccc1C(=O)c1cc2c(-c3ccccc3)c(O)ccc2o1", "cell line": "FM3A", "test": "cell proliferation", "setting": "48 h", "IC50": "> 50 µM"}
